Experimental data collected from several papers.
Each numbered part is a random draw from the data of one study; scales do not carry over between parts.
UniProt P07948, sequence (whole entry, looked up): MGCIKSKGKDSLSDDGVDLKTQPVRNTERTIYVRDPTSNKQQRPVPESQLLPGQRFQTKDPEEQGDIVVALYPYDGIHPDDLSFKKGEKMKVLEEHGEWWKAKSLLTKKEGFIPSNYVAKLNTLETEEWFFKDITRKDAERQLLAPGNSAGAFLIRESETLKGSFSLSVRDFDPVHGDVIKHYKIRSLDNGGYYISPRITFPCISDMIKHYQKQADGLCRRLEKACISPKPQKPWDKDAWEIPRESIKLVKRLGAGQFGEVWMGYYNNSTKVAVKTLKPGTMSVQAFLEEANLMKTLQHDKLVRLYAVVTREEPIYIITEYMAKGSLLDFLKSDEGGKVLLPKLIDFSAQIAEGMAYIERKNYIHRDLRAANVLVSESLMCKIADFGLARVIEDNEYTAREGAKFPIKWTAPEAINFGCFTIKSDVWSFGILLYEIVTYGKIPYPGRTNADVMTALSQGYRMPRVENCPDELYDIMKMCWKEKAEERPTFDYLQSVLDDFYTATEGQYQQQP
UniProt Q13557, sequence (whole entry, looked up): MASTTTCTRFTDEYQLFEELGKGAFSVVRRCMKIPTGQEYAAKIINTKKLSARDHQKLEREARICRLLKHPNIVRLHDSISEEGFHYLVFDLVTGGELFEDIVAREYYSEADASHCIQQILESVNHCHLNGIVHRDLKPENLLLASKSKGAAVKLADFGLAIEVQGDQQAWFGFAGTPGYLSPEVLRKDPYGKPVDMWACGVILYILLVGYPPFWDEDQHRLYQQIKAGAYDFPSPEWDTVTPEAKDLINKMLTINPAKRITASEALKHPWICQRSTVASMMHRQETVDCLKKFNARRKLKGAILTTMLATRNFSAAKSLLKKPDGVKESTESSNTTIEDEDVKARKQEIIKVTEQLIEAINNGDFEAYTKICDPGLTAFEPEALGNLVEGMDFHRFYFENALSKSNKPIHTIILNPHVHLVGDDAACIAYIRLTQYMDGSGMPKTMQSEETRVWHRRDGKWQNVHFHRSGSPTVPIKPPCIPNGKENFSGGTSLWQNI
UniProt P51451, sequence (whole entry, looked up): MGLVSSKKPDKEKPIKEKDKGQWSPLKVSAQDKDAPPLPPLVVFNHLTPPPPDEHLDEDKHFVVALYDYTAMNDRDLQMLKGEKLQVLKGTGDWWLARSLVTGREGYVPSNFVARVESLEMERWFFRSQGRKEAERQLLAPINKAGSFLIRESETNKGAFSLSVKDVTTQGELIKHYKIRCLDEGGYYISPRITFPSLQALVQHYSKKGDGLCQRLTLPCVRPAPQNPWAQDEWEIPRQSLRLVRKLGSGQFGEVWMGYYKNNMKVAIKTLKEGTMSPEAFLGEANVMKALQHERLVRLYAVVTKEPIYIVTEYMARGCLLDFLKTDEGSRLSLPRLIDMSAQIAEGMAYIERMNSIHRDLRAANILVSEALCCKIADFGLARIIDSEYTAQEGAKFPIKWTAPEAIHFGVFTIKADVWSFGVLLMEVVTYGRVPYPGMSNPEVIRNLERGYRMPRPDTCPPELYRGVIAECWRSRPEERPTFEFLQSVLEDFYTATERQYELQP
UniProt P36897, sequence (whole entry, looked up): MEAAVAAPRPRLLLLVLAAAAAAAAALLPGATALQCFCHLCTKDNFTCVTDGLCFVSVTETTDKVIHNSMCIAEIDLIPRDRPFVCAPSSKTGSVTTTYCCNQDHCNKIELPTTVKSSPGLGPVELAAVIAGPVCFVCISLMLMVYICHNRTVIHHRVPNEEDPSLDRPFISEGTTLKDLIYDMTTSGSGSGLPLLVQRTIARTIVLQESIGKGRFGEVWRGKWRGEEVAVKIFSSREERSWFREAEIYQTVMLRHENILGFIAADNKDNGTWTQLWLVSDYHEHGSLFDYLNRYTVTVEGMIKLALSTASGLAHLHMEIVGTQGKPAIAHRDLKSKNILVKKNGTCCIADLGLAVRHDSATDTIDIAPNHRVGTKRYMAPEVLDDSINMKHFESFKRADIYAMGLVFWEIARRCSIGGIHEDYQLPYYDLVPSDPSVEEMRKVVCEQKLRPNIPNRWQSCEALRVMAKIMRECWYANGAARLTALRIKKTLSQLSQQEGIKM
UniProt O94804, sequence (whole entry, looked up): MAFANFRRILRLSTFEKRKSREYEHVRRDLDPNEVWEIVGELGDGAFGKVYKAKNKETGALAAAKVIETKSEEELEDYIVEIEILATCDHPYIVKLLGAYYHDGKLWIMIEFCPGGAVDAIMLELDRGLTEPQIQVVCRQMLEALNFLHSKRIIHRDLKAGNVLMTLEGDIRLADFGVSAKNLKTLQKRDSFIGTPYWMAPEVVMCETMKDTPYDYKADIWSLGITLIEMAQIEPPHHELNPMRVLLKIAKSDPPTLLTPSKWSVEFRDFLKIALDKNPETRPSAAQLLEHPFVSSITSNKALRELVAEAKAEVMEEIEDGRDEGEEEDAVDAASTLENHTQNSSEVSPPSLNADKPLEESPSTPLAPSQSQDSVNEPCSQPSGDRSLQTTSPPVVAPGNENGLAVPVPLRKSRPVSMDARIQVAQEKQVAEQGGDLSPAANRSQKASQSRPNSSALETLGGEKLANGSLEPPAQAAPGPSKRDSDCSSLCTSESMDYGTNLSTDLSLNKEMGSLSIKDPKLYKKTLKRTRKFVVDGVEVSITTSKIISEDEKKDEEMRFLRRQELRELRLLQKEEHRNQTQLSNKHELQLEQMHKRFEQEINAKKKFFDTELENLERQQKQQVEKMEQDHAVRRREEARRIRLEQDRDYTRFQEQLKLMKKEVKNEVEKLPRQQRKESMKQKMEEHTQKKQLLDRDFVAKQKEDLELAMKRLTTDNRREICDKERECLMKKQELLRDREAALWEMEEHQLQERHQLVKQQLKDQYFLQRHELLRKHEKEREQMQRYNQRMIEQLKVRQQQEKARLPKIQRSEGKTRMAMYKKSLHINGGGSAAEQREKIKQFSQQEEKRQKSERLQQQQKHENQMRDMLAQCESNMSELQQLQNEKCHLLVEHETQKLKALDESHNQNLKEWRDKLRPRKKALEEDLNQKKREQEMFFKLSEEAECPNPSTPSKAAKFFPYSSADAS
UniProt Q6XUX3, sequence (whole entry, looked up): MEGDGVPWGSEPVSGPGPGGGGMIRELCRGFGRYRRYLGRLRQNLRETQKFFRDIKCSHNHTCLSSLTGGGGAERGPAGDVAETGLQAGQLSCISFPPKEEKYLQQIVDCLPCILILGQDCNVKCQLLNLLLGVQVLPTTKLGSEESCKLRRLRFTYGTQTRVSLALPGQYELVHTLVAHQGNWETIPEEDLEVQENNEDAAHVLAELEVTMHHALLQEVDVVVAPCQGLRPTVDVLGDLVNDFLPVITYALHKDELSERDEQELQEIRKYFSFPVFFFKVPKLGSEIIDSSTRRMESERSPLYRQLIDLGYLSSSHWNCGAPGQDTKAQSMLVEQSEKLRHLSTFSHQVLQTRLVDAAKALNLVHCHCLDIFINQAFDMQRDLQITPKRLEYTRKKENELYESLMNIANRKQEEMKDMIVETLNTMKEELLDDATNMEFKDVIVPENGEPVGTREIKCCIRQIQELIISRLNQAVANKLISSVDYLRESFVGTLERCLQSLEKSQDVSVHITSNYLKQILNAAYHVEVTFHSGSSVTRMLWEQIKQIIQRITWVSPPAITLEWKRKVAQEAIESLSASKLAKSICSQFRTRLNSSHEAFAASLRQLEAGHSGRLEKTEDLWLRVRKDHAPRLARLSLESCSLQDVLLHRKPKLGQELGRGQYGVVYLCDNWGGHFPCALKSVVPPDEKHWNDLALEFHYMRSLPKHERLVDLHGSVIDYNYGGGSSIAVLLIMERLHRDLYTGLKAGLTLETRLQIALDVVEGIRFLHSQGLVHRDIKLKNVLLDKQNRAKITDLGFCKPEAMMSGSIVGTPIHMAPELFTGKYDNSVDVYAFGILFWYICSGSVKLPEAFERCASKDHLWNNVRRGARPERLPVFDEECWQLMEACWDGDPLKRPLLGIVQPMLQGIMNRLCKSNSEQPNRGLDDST
UniProt P11802, sequence (whole entry, looked up): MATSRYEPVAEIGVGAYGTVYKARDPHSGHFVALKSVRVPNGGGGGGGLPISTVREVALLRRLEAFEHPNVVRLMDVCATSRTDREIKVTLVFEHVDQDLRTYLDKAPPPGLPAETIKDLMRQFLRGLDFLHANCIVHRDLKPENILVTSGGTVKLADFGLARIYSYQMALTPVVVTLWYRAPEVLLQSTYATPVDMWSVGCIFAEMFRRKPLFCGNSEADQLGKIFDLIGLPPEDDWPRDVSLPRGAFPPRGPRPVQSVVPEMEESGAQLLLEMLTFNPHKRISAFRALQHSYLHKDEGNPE

Set 1 — technique: competition with immobilised ligand; concentration: 1 µM
SMILES: C[C@H](c1ccc(F)cc1)N(Cc1cccc(C(=O)O)c1)C(=O)c1cnc2ccccc2c1
| target | test | remaining binding [%] |
| --- | --- | --- |
| KIT (Homo sapiens, UniProt P10721, D816H) | cell-free assay | 100 |
| CDK11A (Homo sapiens, UniProt Q9UQ88) | binding | 100 |
| BLK (Homo sapiens, UniProt P51451) | cell-free assay | 88 |
| DSTYK (Homo sapiens, UniProt Q6XUX3) | cell-free assay | 100 |

Set 2 — technique: protein-binding microarray; molecule type: double-stranded DNA, one strand shown; matrix: in vitro; concentration: not given; reading: higher = stronger binding
Target: Max-binding protein MNT, bHLH-zipper, MAX partner unstated (MNT, Homo sapiens, UniProt Q99583, residues 220-300)
Notes: k-mer, scored over probes, only values ≥0.25
Residues (chain): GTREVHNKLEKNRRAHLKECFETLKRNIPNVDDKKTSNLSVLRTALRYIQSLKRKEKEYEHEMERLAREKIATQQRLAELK
| Oligonucleotide | E-score |
| --- | --- |
| AAACCATG | 0.323 |
| CGTGCTAA | 0.308 |
| AAACACAC | 0.273 |
| CGCATGCC | 0.397 |
| AGGCACGC | 0.394 |
| CGTGGCAC | 0.414 |
| CGTGGAAC | 0.27 |
| GCGCACCC | 0.289 |

Set 3 — effect on: enzyme activity; mode: inhibitor; concentration: 0.5 µM; relative to: control
Compound: COc1ccc2c(c1)c(C1=C(c3c[nH]c4ccccc34)C(=O)NC1=O)cn2CCCN(C)C
| target | remaining activity |
| --- | --- |
| MAP3K3 (Homo sapiens, UniProt Q99759) | 82.8% |
| GRK3 (Homo sapiens, UniProt P35626) | 96.3% |
| Tyrosine-protein kinase Lyn, isoform B (LYN, Homo sapiens, UniProt P07948) | 94.2% |
| CAMK2D (Homo sapiens, UniProt Q13557) | 74.8% |
| TGFBR1 (Homo sapiens, UniProt P36897) | 101% |
| PRKCA (Homo sapiens, UniProt P17252) | 3.14% |
| CAMKK2 (Homo sapiens, UniProt Q96RR4) | 82% |
| PRKACA (Homo sapiens, UniProt P17612) | 77.9% |
| Protein kinase C beta type, isoform beta-I (PRKCB, Homo sapiens, UniProt P05771) | 19.3% |
| STK10 (Homo sapiens, UniProt O94804) | 31.7% |
| Cyclin-dependent kinase 4, with cyclin D1 (CDK4, Homo sapiens, UniProt P11802) | 78.6% |
| DAPK1 (Homo sapiens, UniProt P53355) | 105% |

Mixed results
| SMILES | tested on | test | test system | setting | scale | quantity | result |
| --- | --- | --- | --- | --- | --- | --- | --- |
| Cn1c(=O)c2cc(C(=O)NCCCN3CCCCCC3)sc2c2ccccc21 | mouse MPNST tumor cells | high-content nuclear imaging, measured: cell number | – | 10 µM, 12 h, mean of 2 replicates | relative to: plate mean, higher = more cells | nuclei count | 1.78 z-score |
| CC[C@@]1(O)C(=O)OCc2c1cc1n(c2=O)Cc2cc3c(CN(C)C)c(O)ccc3nc2-1 | HaCaT | – | – | 100 µM, 60 h | – | viability | 17.8% |
| O=C1CCc2cc(Cl)ccc2N1Cc1ccc(Cl)cc1Cl | – | – | mouse, microsomes or S9 | 2 µM, 0.5 h | – | remaining compound | 48.2% |
| CC(=O)O[C@]1(C(C)=O)CC[C@H]2[C@@H]3C=C(Cl)C4=CC(=O)[C@@H]5C[C@@H]5[C@]4(C)[C@H]3CC[C@@]21C | mouse MPNST tumor cells | high-content nuclear imaging, measured: cell number | – | 10 µM, 12 h, mean of 2 replicates | relative to: plate mean, higher = more cells | nuclei count | 3.29 z-score |
| CC(C)[C@H]1CC[C@H](C(=O)N[C@H](Cc2ccccc2)C(=O)O)CC1 | HaCaT | – | – | 100 µM, 60 h | – | viability | 119% |
